Measured values of several laboratories.
Parts stem from different laboratories: compare values within a part only.

Sample 1 — technique: universal PBM; molecule type: double-stranded DNA, one strand shown; sample: in vitro; concentration: not given; direction: higher = stronger binding
Target: Sal-like protein 4, full length isoform B (SALL4, Homo sapiens, UniProt Q9UJQ4-2, residues 1-616)
Setting: 8-mer, flanks averaged, mean of replicates
Target sequence (chain): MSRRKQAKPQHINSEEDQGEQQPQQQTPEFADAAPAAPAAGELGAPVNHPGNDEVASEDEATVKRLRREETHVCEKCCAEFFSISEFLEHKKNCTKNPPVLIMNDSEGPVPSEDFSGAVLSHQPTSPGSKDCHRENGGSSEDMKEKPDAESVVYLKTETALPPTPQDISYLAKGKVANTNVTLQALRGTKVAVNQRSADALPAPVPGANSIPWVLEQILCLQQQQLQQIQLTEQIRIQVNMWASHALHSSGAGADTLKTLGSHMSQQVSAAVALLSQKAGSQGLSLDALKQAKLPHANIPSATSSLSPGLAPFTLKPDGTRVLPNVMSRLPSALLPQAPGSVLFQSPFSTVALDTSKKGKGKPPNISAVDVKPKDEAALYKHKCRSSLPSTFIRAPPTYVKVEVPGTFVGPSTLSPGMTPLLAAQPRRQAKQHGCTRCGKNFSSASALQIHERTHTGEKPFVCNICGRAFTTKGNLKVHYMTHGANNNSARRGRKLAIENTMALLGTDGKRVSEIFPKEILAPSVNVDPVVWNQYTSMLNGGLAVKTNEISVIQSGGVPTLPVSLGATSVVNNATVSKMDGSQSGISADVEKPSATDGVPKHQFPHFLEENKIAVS
Oligonucleotide	E-score
CTAGCATA	0.194
ACGGCGAT	-0.102
ACGTCTAC	0.0558
GTTTGGAA	0.088
CCCATGTA	0.00987
CCTCCCCG	-0.274
CGAGAATA	0.0292
GAAGCTAC	-0.0238
CCCATGAA	-0.0628
ATTGGGGG	0.13
AACCTGTC	-0.0504
CAGACGAG	-0.0973
CTGCGCAC	-0.13
GCAAGCGC	-0.167
CGTCTGTC	-0.238
CCATATTC	0.201
AGGCGAGA	-0.168
CGTCGTAG	-0.127
CCCGTGCG	-0.307
AGTATGTA	0.206
ATGAATCG	0.128
GCTTCCAA	-0.0534
GTCAAGAC	-0.222
CACACGCC	-0.024
AATCAATC	0.112

Sample 2 — technique: protein-binding microarray; molecule type: double-stranded DNA, one strand shown; sample: in vitro; concentration: not given; direction: higher = stronger binding
Target: Max-binding protein MNT, bHLH-zipper, MAX partner unstated (MNT, Homo sapiens, UniProt Q99583, residues 220-300)
Setting: k-mer, scored over probes, only values ≥0.25
Construct (chain): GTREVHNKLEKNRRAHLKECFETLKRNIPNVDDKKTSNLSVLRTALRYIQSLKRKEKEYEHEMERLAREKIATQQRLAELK
Oligonucleotide	E-score
AGCGCATG	0.42
CAGCGTGA	0.294
ACGTGTTA	0.453
GAACGTGC	0.385
CACGAGAG	0.284
CATGGCAA	0.347
ACAGCACG	0.347
GTGCAGAA	0.256
GCGTGGAA	0.396
CGTGGTAA	0.403
AGTACACG	0.366
CCATATGG	0.354
AGATGGGG	0.282
GAAAGCAC	0.281
AGCCACGC	0.395
CAAGCATG	0.4
ATGCTTCC	0.263
CATGGTAC	0.362
AAACATGT	0.329
GAACACGC	0.419
CACGCCGG	0.352
ACCACGCC	0.382
ATCACGCC	0.285
CATGGTAA	0.273
GCCCCCGC	0.267

Sample 3 — technique: RNA Bind-n-Seq; molecule type: RNA; sample: in vitro; concentration: 365 nM; reference: no-protein control; direction: higher = stronger binding
Target: RNA binding protein fox-1 homolog 2, RRM domain, GST-SBP tag (RBFOX2, Homo sapiens, UniProt O43251-10, residues 100-194)
Setting: natural RNA segment, single round, ends assumed
Constant ends, left off below: GGGAGUUCUACAGUCCGACGAUC … UGGAAUUCUCGGGUGCCAA
Target sequence (chain): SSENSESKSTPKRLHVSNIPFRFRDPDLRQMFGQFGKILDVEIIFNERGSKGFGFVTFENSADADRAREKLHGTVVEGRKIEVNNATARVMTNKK
Oligonucleotide	RBNS enrichment (R)
UUCCGUCUCUGUGCUUGCUAAUAGUUUCACAAGUGGCUUGACUUUUUUAGAAGUAUUAUGUGGUAUUUUACUGUGUAUCACUUCUGUGGUAAACAUGUGAAGUCCUUUGG	0.304
GCCUUAACCGAAGGCAACCUCUGCUCCAGAUGGAUGGUACCAGUAGCUUCUUAAUUCCAAUACUAAUUUGCUUUGCUGACCAAAUACCUGCCUGGUACCAGAAGACAGGG	0.302
CUUCAUGGGAUUGGUGCACCCUGAAGACCACAAAUUAAAUAAAUAUCAUGACUGGCUUUGGGAAAAUCAUGAAAAAUUAAGUCUAUCUUAAACUCUGCAGCUUUCAAGCU	0.318
GGACUCGAGGGCAGCAGAUCCAUCUCCCGUCCCUUGCUGCAUGAUGGUCACUAGCUGAUCUGUGAUGGCGUCCCUUCCCCCAUUGAUUUUCUGUGUUUGAAGUAUGUGCA	20.8
GUUAAUGGCAGGCAGGCCCAUCUGGCUAUCCCGCAGUUGGGGAAACCCUUGCAAAGUAAACAGCUUUCCCAGGUUCCAAGGCCAGUUUUCACUGCUAAGGACCGGAAGGA	0.324
AAUAGUCCCAUGCUGACUUUCUAUCUUCCUUUCUCAAACUGUCUUAGGAAGGACCUUCAGUGCAGAUCAGGUGCAGUAAUGGCUUUCUUGUCCCUUAAUUAUUCACCAGA	0.294
AGUAUUUUUGACAUUUUUCUUUAGAAAAAGGAAGAGCUAAAGGAAUUUUAUAAGUUUUGUUACAUGAAAGGUUGAAAUAUUGAGUGGUUGAAAGUGAACUGCUGUUUGCC	1.39
CGCCUUACCUUUGAUGUCUGAAGCGAAACUCCUUUCACCAAGGGCCAGAUUCGGAAACUUCAACCUUGGCUGCUGGAGUCCUGUAGUGAUACCUGUAACAAUCAGAAAUU	0.282
CACUGCUUUUUUUCCUGAUGUGGGGUGAGGGUCUAUUCUGUUUCCCAUUCCUGCUGCAUCCUGCCUGUGCCCCACAGCAAGCUUUCCACCCCCCAGGGAGGACCCAGCCC	9.85
UAUUAUUGAUGAAUUUUCAUAAGGUGGAAUUGAUCUUAAUCUACUAACAGAGAAGGGUAGACAGUUUGUGUUAAAUGUUGGCAUUUACUUGUAUUGACCAAAGUUUUGCA	2.07
UUUGAUUCAACAUCACAAAAAAGAAAAAUUCAGUGGUUCCAGUAAAGAUUUGAAAUUUGUUAAAAUGAGAAAUACCUUUGGAAGCCAUACAUAUGAAAAUCAGGAGGAAA	0.298
UCUCUGUGACCUCACCCUGGCCUCUCCUGGAGCUCUGAACCUGCUGUGGAAGGAAGUGGCUGUGACUUUAACCACUGGAGAGCGGAGUCUGUGGUGUGGAGAGGGUGUUC	0.831

Sample 4 — technique: protein-binding microarray; molecule type: double-stranded DNA, one strand shown; sample: in vitro; concentration: 2200 nM top; setting: 60-bp whole probe; together with: salmon DNA 0.4 mg/ml; reference: random background probes; direction: higher = stronger binding; constant ends, left off below: GCCTAGCAC … GTCTTGATTCGCTTGACGCTGCTG
Target: Interferon regulatory factor 7, full length, phosphomimetic (IRF7, Homo sapiens, UniProt Q92985, residues 1-503, S471D/S472D/S475D/S476D/S477D/S483D/S484D/S487D)
Residues (chain): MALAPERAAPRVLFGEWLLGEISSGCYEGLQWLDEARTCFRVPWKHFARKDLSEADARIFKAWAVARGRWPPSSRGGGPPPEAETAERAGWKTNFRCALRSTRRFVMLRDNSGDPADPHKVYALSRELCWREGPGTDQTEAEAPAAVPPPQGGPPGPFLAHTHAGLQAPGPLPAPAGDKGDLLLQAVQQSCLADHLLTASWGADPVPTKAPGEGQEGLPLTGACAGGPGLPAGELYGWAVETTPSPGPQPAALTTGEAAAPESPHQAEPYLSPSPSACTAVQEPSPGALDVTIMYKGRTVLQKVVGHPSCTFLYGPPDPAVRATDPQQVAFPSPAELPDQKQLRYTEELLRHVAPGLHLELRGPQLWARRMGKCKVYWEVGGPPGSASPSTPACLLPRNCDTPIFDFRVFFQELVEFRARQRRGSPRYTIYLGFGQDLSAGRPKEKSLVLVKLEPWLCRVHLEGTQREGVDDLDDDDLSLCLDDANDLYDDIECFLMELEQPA
Oligonucleotide	fitted relative affinity [z-score]
ATGCTTCTGTATTCATGAAGGTGCTAG	1.04
GACGAGTTCAGACTGGAGACGTGCTAG	-0.227
TTAGGTATCGTCTATCGGTTAGTGCTA	0.513
GACGGTTTCGCTTTCGGGACGTGCTAG	13.4
TTCTATGACTACATTGCAGCGTGCTAG	0.734
TTAGACCTGAGTATCGATTAGTGCTAG	-0.179
TCATGTCTGTAGCTCATACTGTGCTAG	0.929
GACGGTCGCGGTCTCGGGACGTGCTAG	-0.556
GACGGTATCGACACTGGGGACGTGCTA	-0.31
GACGGACTTGGACTGGGGACGTGCTAG	-0.678
TTAGGTCTCGGACTGGGTTCGTGCTAG	-0.338
AGAGAGAGTGAGGAACAACAGTGCTAG	-0.969
TCAATTTTGGTTTTCCTACTGTGCTAG	2.76
CTTTGCTCATTTTTCAGGGAGTGCTAG	0.888
GACGGTATCCGGTTTCGGGACGTGCTA	2.96
GACGATTTTAGACTGGAGACGTGCTAG	0.00559
GACGGTATCCTTCTCCTCACGTGCTAG	1.18
TCACCTTTGTTTTTTTCACTGTGCTAG	2.05
GACGGACTGGGGACTGAGGACGTGCTA	-1.12
GACGGACTGCTTACCCTGACGTGCTAG	0.405
ACCCGTACTGGGTCTGGATCGTGCTAG	-0.28
GACGATATCTGACTGGAGACGTGCTAG	0.186
TTAGGTTTCGGTCACGGTTAGTGCTAG	3.57
TCAAGTTTCTTTTCTTTACTGTGCTAG	5.78
GACGGTCTGGACTTTCGGGACGTGCTA	2.09

Repeated from above (sample 3):
Oligonucleotide	RBNS enrichment (R)
CACUGCUUUUUUUCCUGAUGUGGGGUGAGGGUCUAUUCUGUUUCCCAUUCCUGCUGCAUCCUGCCUGUGCCCCACAGCAAGCUUUCCACCCCCCAGGGAGGACCCAGCCC	9.85
AGUAUUUUUGACAUUUUUCUUUAGAAAAAGGAAGAGCUAAAGGAAUUUUAUAAGUUUUGUUACAUGAAAGGUUGAAAUAUUGAGUGGUUGAAAGUGAACUGCUGUUUGCC	1.39
AAUAGUCCCAUGCUGACUUUCUAUCUUCCUUUCUCAAACUGUCUUAGGAAGGACCUUCAGUGCAGAUCAGGUGCAGUAAUGGCUUUCUUGUCCCUUAAUUAUUCACCAGA	0.294
CGCCUUACCUUUGAUGUCUGAAGCGAAACUCCUUUCACCAAGGGCCAGAUUCGGAAACUUCAACCUUGGCUGCUGGAGUCCUGUAGUGAUACCUGUAACAAUCAGAAAUU	0.282
GGACUCGAGGGCAGCAGAUCCAUCUCCCGUCCCUUGCUGCAUGAUGGUCACUAGCUGAUCUGUGAUGGCGUCCCUUCCCCCAUUGAUUUUCUGUGUUUGAAGUAUGUGCA	20.8
GUUAAUGGCAGGCAGGCCCAUCUGGCUAUCCCGCAGUUGGGGAAACCCUUGCAAAGUAAACAGCUUUCCCAGGUUCCAAGGCCAGUUUUCACUGCUAAGGACCGGAAGGA	0.324
UAUUAUUGAUGAAUUUUCAUAAGGUGGAAUUGAUCUUAAUCUACUAACAGAGAAGGGUAGACAGUUUGUGUUAAAUGUUGGCAUUUACUUGUAUUGACCAAAGUUUUGCA	2.07
GCCUUAACCGAAGGCAACCUCUGCUCCAGAUGGAUGGUACCAGUAGCUUCUUAAUUCCAAUACUAAUUUGCUUUGCUGACCAAAUACCUGCCUGGUACCAGAAGACAGGG	0.302
CUUCAUGGGAUUGGUGCACCCUGAAGACCACAAAUUAAAUAAAUAUCAUGACUGGCUUUGGGAAAAUCAUGAAAAAUUAAGUCUAUCUUAAACUCUGCAGCUUUCAAGCU	0.318
UCUCUGUGACCUCACCCUGGCCUCUCCUGGAGCUCUGAACCUGCUGUGGAAGGAAGUGGCUGUGACUUUAACCACUGGAGAGCGGAGUCUGUGGUGUGGAGAGGGUGUUC	0.831
UUUGAUUCAACAUCACAAAAAAGAAAAAUUCAGUGGUUCCAGUAAAGAUUUGAAAUUUGUUAAAAUGAGAAAUACCUUUGGAAGCCAUACAUAUGAAAAUCAGGAGGAAA	0.298
